Assay results from different studies.
Each line is one published result; not all experiments were run side by side. Numbers after ± are the reported error.
cofactor-independent phosphoglycerate mutase W431C: cofactor-independent phosphoglycerate mutase (Metamycoplasma orale, UniProt A0A448ZXM1, W431C)
Mc1r: Melanocyte-stimulating hormone receptor (Mc1r, Mus musculus, UniProt Q01727)
Sequence of UniProt Q01727 (whole entry, looked up): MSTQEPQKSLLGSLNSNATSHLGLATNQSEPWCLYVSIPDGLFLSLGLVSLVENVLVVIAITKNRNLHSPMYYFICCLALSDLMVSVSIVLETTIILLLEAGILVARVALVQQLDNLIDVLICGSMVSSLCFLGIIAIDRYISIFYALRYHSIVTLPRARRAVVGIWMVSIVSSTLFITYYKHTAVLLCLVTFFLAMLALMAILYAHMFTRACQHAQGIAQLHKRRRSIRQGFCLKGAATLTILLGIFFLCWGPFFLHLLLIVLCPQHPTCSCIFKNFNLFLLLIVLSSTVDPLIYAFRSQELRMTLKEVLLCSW
Sequence of UniProt P25929 (whole entry, looked up): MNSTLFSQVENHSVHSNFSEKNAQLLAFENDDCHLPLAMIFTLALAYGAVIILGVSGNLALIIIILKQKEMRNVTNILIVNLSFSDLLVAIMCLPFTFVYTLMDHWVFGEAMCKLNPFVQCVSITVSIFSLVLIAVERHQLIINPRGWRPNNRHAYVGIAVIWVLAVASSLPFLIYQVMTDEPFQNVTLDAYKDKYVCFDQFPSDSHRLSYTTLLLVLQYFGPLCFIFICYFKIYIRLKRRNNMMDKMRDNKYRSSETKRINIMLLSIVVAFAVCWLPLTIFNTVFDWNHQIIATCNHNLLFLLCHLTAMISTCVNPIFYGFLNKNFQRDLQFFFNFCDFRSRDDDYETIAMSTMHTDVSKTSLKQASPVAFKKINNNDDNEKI
Sequence of UniProt P20309 (whole entry, unmodified, looked up): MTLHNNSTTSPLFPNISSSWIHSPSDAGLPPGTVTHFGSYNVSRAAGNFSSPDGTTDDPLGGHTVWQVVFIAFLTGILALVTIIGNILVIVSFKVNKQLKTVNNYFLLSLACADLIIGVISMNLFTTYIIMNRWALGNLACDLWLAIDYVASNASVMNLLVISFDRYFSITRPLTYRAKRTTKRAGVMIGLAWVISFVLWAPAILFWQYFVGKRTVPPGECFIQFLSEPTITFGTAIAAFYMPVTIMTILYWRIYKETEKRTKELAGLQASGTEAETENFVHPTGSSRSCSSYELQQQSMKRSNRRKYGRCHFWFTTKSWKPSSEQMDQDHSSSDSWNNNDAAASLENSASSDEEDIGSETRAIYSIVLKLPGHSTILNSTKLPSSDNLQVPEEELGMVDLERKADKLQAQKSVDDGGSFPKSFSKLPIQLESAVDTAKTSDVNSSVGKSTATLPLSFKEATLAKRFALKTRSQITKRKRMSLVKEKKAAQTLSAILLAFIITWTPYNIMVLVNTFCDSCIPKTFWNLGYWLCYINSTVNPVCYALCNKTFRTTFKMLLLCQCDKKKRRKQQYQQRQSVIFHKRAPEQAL
Sequence of UniProt P11229 (whole entry, looked up): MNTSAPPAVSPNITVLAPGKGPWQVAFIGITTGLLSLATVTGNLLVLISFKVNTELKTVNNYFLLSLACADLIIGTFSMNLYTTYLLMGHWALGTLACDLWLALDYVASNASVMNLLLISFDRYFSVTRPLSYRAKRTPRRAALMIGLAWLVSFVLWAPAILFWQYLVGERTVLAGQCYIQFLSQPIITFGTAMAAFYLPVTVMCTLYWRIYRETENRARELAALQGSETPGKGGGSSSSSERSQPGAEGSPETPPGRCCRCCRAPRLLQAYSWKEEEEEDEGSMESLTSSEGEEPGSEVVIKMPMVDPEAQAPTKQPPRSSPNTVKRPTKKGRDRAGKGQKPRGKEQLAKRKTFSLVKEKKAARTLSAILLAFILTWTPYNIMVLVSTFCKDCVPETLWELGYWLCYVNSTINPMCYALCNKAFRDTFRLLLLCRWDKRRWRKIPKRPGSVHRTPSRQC
Sequence of UniProt Q07741 (whole entry, looked up): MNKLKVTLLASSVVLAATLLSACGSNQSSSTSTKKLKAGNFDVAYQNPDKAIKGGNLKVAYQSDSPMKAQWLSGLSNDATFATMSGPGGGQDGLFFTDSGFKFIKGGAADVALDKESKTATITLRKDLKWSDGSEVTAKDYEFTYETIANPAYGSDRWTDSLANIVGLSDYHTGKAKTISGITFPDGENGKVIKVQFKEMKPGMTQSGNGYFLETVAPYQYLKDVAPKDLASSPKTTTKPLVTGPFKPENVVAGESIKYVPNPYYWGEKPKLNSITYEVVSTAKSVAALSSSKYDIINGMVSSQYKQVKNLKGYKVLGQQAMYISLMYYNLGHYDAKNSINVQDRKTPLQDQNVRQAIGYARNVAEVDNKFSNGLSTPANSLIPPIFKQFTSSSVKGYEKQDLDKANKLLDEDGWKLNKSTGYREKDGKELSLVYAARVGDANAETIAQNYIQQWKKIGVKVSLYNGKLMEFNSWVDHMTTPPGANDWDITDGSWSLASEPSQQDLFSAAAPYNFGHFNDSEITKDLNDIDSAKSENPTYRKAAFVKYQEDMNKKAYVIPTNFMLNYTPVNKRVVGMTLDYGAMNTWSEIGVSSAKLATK
Sequence of UniProt G5EFZ1 (whole entry, looked up): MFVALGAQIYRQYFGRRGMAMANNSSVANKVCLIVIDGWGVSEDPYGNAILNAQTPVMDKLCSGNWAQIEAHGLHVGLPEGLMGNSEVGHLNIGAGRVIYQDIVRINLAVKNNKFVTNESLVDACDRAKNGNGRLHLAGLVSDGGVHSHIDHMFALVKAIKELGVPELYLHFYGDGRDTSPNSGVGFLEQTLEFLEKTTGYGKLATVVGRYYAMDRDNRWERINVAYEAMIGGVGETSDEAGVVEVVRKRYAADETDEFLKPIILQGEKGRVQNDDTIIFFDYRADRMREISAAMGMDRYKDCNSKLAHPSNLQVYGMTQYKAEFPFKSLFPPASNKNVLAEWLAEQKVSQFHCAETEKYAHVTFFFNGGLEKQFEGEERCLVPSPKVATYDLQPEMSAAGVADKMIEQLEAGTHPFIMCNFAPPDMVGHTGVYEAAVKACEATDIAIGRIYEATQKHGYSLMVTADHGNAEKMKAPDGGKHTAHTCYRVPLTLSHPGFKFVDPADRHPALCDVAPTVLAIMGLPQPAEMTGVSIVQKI

Structure (SMILES) | target or system | assay | system | conditions | scale | endpoint | value
Cc1sc2c(c1C)C(c1ccc(Cl)cc1)=N[C@@H](CC(=O)NCCCNC(=O)c1cc([N+](=O)[O-])ccc1F)c1nnc(C)n1-2 | BRD4 (Homo sapiens, UniProt O60885) | degrader, cell-based | – | – | – | DC50 | 0.459 µM
C=CC(=O)N1CCC[C@@H](n2nc(-c3ccc(Cl)cc3)c3c(N)ncnc32)C1 | Src family kinases | – | – | – | reference: wild type over S245C | Ki ratio | ≥ 50 fold
CN[C@](C)(C[18F])C(=O)O | A549 tumour model | – | host not given, bone | 15 min, tumour-bearing | – | tracer uptake | 2.6 %ID/g
CC(C)[C@@H]1NC(=O)[C@H](CCC(N)=O)NC(=O)[C@@H](Cc2ccc(O)cc2)NC(=O)CSC[C@@H](C(N)=O)NC(=O)[C@H](CC(=O)O)NC(=O)[C@H](CCC(=O)O)NC(=O)[C@H](Cc2c[nH]c3ccccc23)NC(=O)[C@@H]2CCCN2C(=O)[C@H](CO)NC(=O)[C@H](C)NC(=O)[C@H](Cc2c[nH]c3ccccc23)NC(=O)[C@H](Cc2c[nH]c3ccccc23)NC(=O)[C@H](C(C)C)NC(=O)[C@H]([C@@H](C)O)NC1=O | cofactor-independent phosphoglycerate mutase W431C | biochemical | Mycoplasma orale | – | – | AC50 | 0.00794 µM
CC(=O)N[C@@H](CCCNC(=N)N)C(=O)N[C@@H](CCCNC(=N)N)C(=O)N[C@H](Cc1ccc(I)cc1)C(=O)N[C@@H](C(N)=O)[C@@H](c1ccccc1)c1c[nH]c2ccccc12 | Mc1r | cAMP, agonist, AlphaScreen | – | – | – | EC50 | 0.21 µM
CC(=O)N[C@@H](CCCNC(=N)N)C(=O)N[C@@H](Cc1ccc(O)cc1)C(=O)N[C@@H](CCCNC(=N)NC(=O)NCCCCN)C(=O)N[C@@H](CC(C)C)C(=O)N[C@H](CCCNC(=N)N)C(=O)N[C@@H](Cc1ccc(O)cc1)C(N)=O | NPY1R (Homo sapiens, UniProt P25929) | ligand displacement, radioligand | – | – | – | Ki | > 5 µM
CC(=O)N[C@@H](CCCNC(=N)N)C(=O)N[C@@H](CCCNC(=N)N)C(=O)N[C@H](C(=O)N1Cc2ccccc2C[C@H]1C(N)=O)[C@H](c1ccccc1)c1c[nH]c2ccccc12 | Mc1r | cAMP, agonist, AlphaScreen | – | – | – | EC50 | > 100 µM
[2H]C([2H])(C)N1CCN(C2=Nc3cc(Cl)ccc3Nc3ccccc32)CC1 | CHRM3 (Homo sapiens, UniProt P20309, A239G/Y149C) | calcium signal, agonist | – | – | – | EC50 | 0.0096 µM
CCCC[C@H]1C(=O)N2CCC[C@H]2C(=O)N[C@H](C(N)=O)CSCC(=O)N[C@@H](Cc2ccc(O)cc2)C(=O)N(C)[C@@H](Cc2ccc(OC)cc2)C(=O)N[C@@H](CCCNC(=N)N)C(=O)N(C)[C@@H](Cc2ccccc2)C(=O)N[C@@H](CC(=O)O)C(=O)N(C)[C@@H](CO)C(=O)N(C)[C@@H](Cc2ccc(O)cc2)C(=O)N[C@@H](CCC(N)=O)C(=O)N[C@@H](CO)C(=O)N(C)[C@@H](CO)C(=O)N(C)[C@@H](Cc2ccc(OC)cc2)C(=O)N[C@@H](C(C)C)C(=O)N(C)[C@@H](Cc2ccc(O)cc2)C(=O)N1C | ipgm-1 (Caenorhabditis elegans, UniProt G5EFZ1) | enzyme activity | – | – | – | AC50 | 6.46 µM
N=C(N)NCCC[C@H](NC(=O)[C@H](Cc1ccccc1)NC(=O)[C@@H]1CCCN1C(=O)[C@H](CO)NC(=O)[C@H](Cc1ccccc1)NC(=O)CNC(=O)[C@@H]1CCCN1C(=O)[C@@H]1CCCN1C(=O)[C@@H](N)CCCNC(=N)N)C(=O)N[C@@H](CCCCNS(=O)(=O)c1ccc(C2=c3cc4c5c(c3Oc3c2cc2c6c3CCCN6CCC2)CCC[N+]=5CCC4)c(S(=O)(=O)[O-])c1)C(=O)O | Oligopeptide-binding protein OppA (oppA, Lactococcus lactis subsp. lactis, UniProt Q07741) | binding, fluorescence anisotropy | – | pH 8, 24 °C, added: dye-labelled peptide | – | Kd | 20 ± 1 µM
CC(C)[C@@H]1NC(=O)[C@H](CO)NC(=O)[C@H](Cc2c[nH]c3ccccc23)NC(=O)[C@H](CCC(=O)O)NC(=O)[C@H](CC(=O)O)NC(=O)[C@H](Cc2ccc(O)cc2)NC(=O)[C@H](Cc2ccc(O)cc2)NC(=O)[C@H](Cc2c[nH]c3ccccc23)NC(=O)[C@H](Cc2c[nH]c3ccccc23)NC(=O)[C@H](CC(=O)O)NC(=O)CNC(=O)[C@H](CO)NC(=O)[C@@H](Cc2ccc(O)cc2)NC(=O)CSC[C@@H](C(N)=O)NC(=O)CNC(=O)[C@H](Cc2ccccc2)NC(=O)[C@H](C)NC1=O | cofactor-independent phosphoglycerate mutase W431C | biochemical | Mycoplasma orale | – | – | AC50 | 11.7 µM
C[N+](C)(CC#CCOC1=NOCC1)CCCCCCNC(=O)CCOCCOCCOCCOCCNC(=O)CCCC(=O)NCCCCC(C(=O)O)N(CC(=O)O)CC(=O)O (stereo not drawn) | CHRM1 (Homo sapiens, UniProt P11229) | calcium response, agonist, fura-2 calcium imaging | transfected CHO cells | – | – | EC50 | 2.4 µM

A few entries again:
Structure (SMILES) | target or system | assay | system | conditions | scale | endpoint | value
CC(C)[C@@H]1NC(=O)[C@H](CCC(N)=O)NC(=O)[C@@H](Cc2ccc(O)cc2)NC(=O)CSC[C@@H](C(N)=O)NC(=O)[C@H](CC(=O)O)NC(=O)[C@H](CCC(=O)O)NC(=O)[C@H](Cc2c[nH]c3ccccc23)NC(=O)[C@@H]2CCCN2C(=O)[C@H](CO)NC(=O)[C@H](C)NC(=O)[C@H](Cc2c[nH]c3ccccc23)NC(=O)[C@H](Cc2c[nH]c3ccccc23)NC(=O)[C@H](C(C)C)NC(=O)[C@H]([C@@H](C)O)NC1=O | cofactor-independent phosphoglycerate mutase W431C | biochemical | Mycoplasma orale | – | – | AC50 | 0.00794 µM
